Experimental data pooled from the literature.
Each numbered part is a random draw from the data of one study; scales do not carry over between parts. Changes are numbered by the printed parent chain.

Block 1
Target: RNA binding protein fox-1 homolog 2, RRM domain, GST-SBP tag (RBFOX2, Homo sapiens, UniProt O43251-10, residues 100-194)
Technique: RNA Bind-n-Seq
Molecule type: RNA
Matrix: in vitro
Concentration: 365 nM
Notes: natural RNA segment, single round, ends assumed
Baseline: no-protein control
Reading: higher = stronger binding
Constant ends, left off below: GGGAGUUCUACAGUCCGACGAUC … UGGAAUUCUCGGGUGCCAA
Construct (chain): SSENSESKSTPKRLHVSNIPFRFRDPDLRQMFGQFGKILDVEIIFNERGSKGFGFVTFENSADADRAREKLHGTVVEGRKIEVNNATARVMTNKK
Sequence | RBNS enrichment (R)
AACAAAAACACUGCGCAUUUCAAUCAUCUGCACCUUUCCCUCGUUUUGCAUUAGUACUGAAAUCUGUACCCUACAGACCUUAUAAUAAUUUGCAAAGUGACUCUGACUAA | 0.429
GUUACCCUUUUCGUUUACUGUGUUCUGUGAAAACUUGUAAUUGGUUGAGAAUCACUGUGGGCGUCCAUUCUUAUCAACUAAAUCUCCACAGGGUUUUUGUGCUGGUGUGG | 0.463
AGAGGCCCACAGUGGAGGCUUACCAAAGGUUGCAAUGAGGAAGAGGCCUCUCCCUCACUGUCAGCACCAGCUGGUAAAGGUGACUGUGCAGAUGUGCAUUUUCCUUUUGG | 0.428
CACAAUGGGGUAAUCAGUUUGGAUAGAUGUAAAAAGAGCCAGAUAUGUCCUUCUCCAUGGCCAUGCCCUAACUGCAAUCUGUCAGAAUCAGUCAUUUUUAAAGAAAUUCU | 0.391
AAGUGACAUGAUGUGGCCAAAAAUCCAAACUGUGCAGUUGCGUUGUGACAAACAUGCAAUGUGCUGUAAAAACUCAAUACAGUUCAAAUAAAAUCUCUAUAUUAGUGCUG | 0.3
UUCAUUUUAGCUUCAAAACAAGCUGGGCACACUGUUAAAUCAUGAUUUUGCAGAACCUUUGGUUUUGGACAGUUUCAUUUUUUUGGAUUUGGGAUAGAUUACAUAGGAGU | 0.347
UAUAUUUGCAUACCCUUUUAUUUCCAAAACAAAAUGAGCUCUUUUCCCUUGAGACAAUAUCAUUCCCAUAUACCUCUCAUUGUCUUGGCUUUCUUAUCCAAGACGAGAAG | 1.1
UCCAGAGGGACAGGGUGGACCCCCUGAGUCAACUGGAGCAAGAAGGAAGGAGGCAGACUGAUGGCGAUUCCCUCUCACCCGGGACUCUCCCCCUUUCAAGGAAAGUGAAC | 0.524

Block 2
Target: CCNB1, cyclin fold, Cln2 fusion (human)
Technique: yeast growth competition, sequencing
Matrix: yeast
Notes: weak parent motif
Baseline: not given
Reading: higher = stronger binding
Starting sequence: CDC25A docking peptide (human); PPHRRRLLFACSP
Substitution | normalised enrichment score
PPHRNRLLFACSP [R5N] | -0.128
PPHRRRLLFARSP [C11R] | -0.254
PPHRRTLLFACSP [R6T] | 0.569
PPHRRRMLFACSP [L7M] | 0.388
PPNRRRLLFACSP [H3N] | 0.624

Block 3
Target: Histone acetyltransferase KAT6A, winged helix 2, GST fusion (KAT6A, Homo sapiens, UniProt Q92794, residues 85-181)
Technique: protein binding microarray
Molecule type: double-stranded DNA, one strand shown
Matrix: in vitro
Concentration: not given
Notes: 8-mer, flanks averaged, mean of 2 arrays, mostly near background
Baseline: not given
Reading: higher = stronger binding
Target sequence (chain): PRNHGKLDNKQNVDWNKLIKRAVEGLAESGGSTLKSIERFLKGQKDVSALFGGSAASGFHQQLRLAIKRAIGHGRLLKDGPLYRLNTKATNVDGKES
Sequence | E-score
CATCATAG | -0.00747
ACGTAACG | -0.246
TCACGGGA | -0.074
CTCGGTAA | -0.0588
AAATGCGA | 0.155
AGAGACAT | -0.0189
ACAGAGAC | 0.01

Other studies, line by line
Substance | target | assay | system | setting | how to read | endpoint | result
PhoQ, residues 284 288 289 292 302 303 SQSLSM | PhoP, residues 12 14 15 18 19 SEGLL (Escherichia coli, UniProt P23836) | Sort-seq, item: YFP reporter | E. coli | PhoQ-PhoP variant library, with: 10 µM Mg2+ | baseline: high Mg2+ state, higher = stronger signaling | fold induction | 11.1

Repeated from above (block 2):
Substitution | normalised enrichment score
PPHRRTLLFACSP [R6T] | 0.569
PPHRRRMLFACSP [L7M] | 0.388
PPNRRRLLFACSP [H3N] | 0.624
